Published values of several laboratories.
Each numbered part is a random draw from the data of one study; scales do not carry over between parts. Changes are numbered by the printed parent chain.

Sample 1 — technique: RNA Bind-n-Seq; form: RNA; medium: in vitro; tested at: 365 nM; reference: no-protein control; reading: higher = stronger binding
Target: RNA binding protein fox-1 homolog 2, RRM domain, GST-SBP tag (RBFOX2, Homo sapiens, UniProt O43251-10, residues 100-194)
Notes: natural RNA segment, single round, ends assumed
Shared flanks, not repeated: GGGAGUUCUACAGUCCGACGAUC … UGGAAUUCUCGGGUGCCAA
Construct (chain): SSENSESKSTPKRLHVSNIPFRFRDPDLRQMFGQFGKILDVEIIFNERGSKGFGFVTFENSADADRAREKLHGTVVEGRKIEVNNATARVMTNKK
| Sequence | RBNS enrichment (R) |
| --- | --- |
| ACAUCGAUACGAGACCUCUGAAUUUGUAUUUUUUCUUGUUAACCAUUUUAAUUUGUUGGCUGGAUGUAUAAAGAUGUUUAAAAAAUUCAGUUGCUUUUUGGGGUAAUUUG | 0.574 |
| CCGGCUAUGAAAGGGAGCGAGCCCCUCGGCUCUGGAGGCAAUCAAGCAGACAUAGAAGAGCCAAGAGUCCAGGAGGCCCUGGUCCUGGCCUCCUUCCCCGUACUUUGUCC | 0.378 |
| CUUUAACUAGAAAGUGUUUAUUUUGGCUACAUUGUUCACCUUCUGCUGUAUUGGUAUUUGUCUGUUGGGAUUUCAAGGGAGUGUAGAGAAGACAGAAGGAAAGCUGAGAG | 1.09 |
| CUGUUUUCUGGUGCUGACUGCUACACCCAGGACUUUGCCCUCACUAAGCAAAUGUACCACCAAUGAGCCAGGUUCCUAGCCUUCCUUUUGGAAGCUCAGUUCUUGAGUUG | 0.225 |
| AUGUGGAGGGGAGAUAGAGAUUAACCAGCCGUUUUGUGAUGCCGUGGAUUGAUCAAGUCUUCUGAUCCUUUUUUUUUUCUUUAUAUUUUGGGUUUUGGAGCUUUUAAAAA | 0.94 |
| CAGGAGCCAGGAAACCACUUUAAGAUGUAAGCCAUUGUGUGUCUCUAGUUUCUUAAGCAGACCAAGUGAAUGGCUUACAGUCUGAAACAAAUAAAAGCCUUUGUAAAAGU | 0.486 |
| CUCCUCCCCCCUCCUCUGAAACAGCUGCCUUAGCUUCAGGAACCUCGAGUACUGUGGGCAAUUUAGAAAAAGAACAUGCAGUUUGAAAUUCUGAAUUUGCAAAGUACUGU | 0.478 |
| ACCCAUCACUUUAAAUCCUUAAAGUUAGAAGCUAGCAAAUUUUCUGUAGUGCAGAACGUUUAUUGCUGUUUUUGUGUUUGAAUAGUAUAAUGUUUGAUGCCUCUCUUCUG | 0.282 |
| CAGGGCAAAUGUGAAUUUUCUUUUGAUUUGGGAGAUUGUUCACAGGAAGUAGUCCUCCCCUCUCAUGUCCUCCUAUUGAUUGUUUACAAUAUUUGUACAUCUAUGCAAAA | 0.54 |
| UUUUUAGCCGUAAUUAAAGAAAAAAAAAGUCCUCUGUGAGGAAUAUUCUCUAUUUUAAAUACUUUUAGUAUGUACUGUGUAUGACUCAUUACCAUUUUGAGGGGAUUUAU | 0.617 |
| AUGAUAACUGUUGUGAGUAGUGCUUUUCAUUCUUCUCACUUGCCUUUGUUACUUAAUGUGCUUUCAGUACAGCAGAUAUGCAAUAUUCACCAAAUAAAUGUAGACUGUGU | 0.515 |
| AAGCUGACCAUGCAGCUCGCUGCUGGCCCCCAGUAAGCACCCCUUCCCACCGUCCACUCCCCGUCCCCGGGGGCCUGCCCUCAGUCUAAGCUUUGGAACACUCUCACCUC | 0.655 |

Sample 2 — target: CCNB3, cyclin fold, Cln2 fusion (human); technique: yeast growth competition, sequencing; medium: yeast; notes: strong parent motif; reference: not given; reading: higher = stronger binding
Starting sequence: E2F1 docking peptide (human); PPVKRRLDFETDH; partner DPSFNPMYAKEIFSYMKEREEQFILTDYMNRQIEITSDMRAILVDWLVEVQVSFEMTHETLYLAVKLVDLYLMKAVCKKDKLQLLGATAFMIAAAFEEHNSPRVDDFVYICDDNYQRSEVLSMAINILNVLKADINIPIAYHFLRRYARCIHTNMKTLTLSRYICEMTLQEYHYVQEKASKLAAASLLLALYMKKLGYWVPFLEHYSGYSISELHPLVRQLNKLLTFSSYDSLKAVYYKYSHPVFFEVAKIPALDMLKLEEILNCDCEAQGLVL
| Substitution | normalised enrichment score |
| --- | --- |
| PPVWRRLDFETDH [K4W] | 2.24 |
| PPVLRRLDFETDH [K4L] | 0.763 |
| PPVKRRLDFEWDH [T11W] | 2.26 |
| PPNKRRLDFETDH [V3N] | -0.0303 |
| PPVKRRLDFETRH [D12R] | 3.34 |
| PPVKRRLVFETDH [D8V] | 2.64 |
| PPVKRRLDFATDH [E10A] | 2.26 |
| PPPKRRLDFETDH [V3P] | 0.977 |
| PPVKRRLDFETYH [D12Y] | 3.29 |
| PPVKRRLDFLTDH [E10L] | 1.61 |
| PPVKRFLDFETDH [R6F] | 0.561 |
| PPVKRCLDFETDH [R6C] | 0.811 |
| PVVKRRLDFETDH [P2V] | 1.51 |
| PPVKRRLDFPTDH [E10P] | 1.43 |
| PPVKRWLDFETDH [R6W] | 0.363 |
| PPVKRRLWFETDH [D8W] | 1.15 |
| PPVKRSLDFETDH [R6S] | 1.3 |
| PPVKRREDFETDH [L7E] | -0.00685 |
| PPHKRRLDFETDH [V3H] | 0.109 |
| PPVKRRLDMETDH [F9M] | 0.411 |
| PPVKRRLDFETSH [D12S] | 3.06 |
| PPVKRNLDFETDH [R6N] | 0.433 |
| PPVKRRGDFETDH [L7G] | -0.544 |
| PPVKRRLDHETDH [F9H] | 0.0227 |
| PPVKRRHDFETDH [L7H] | 0.0466 |

Sample 3 — technique: protein binding microarray; form: double-stranded DNA, one strand shown; medium: in vitro; tested at: not given; reference: not given; reading: higher = stronger binding
Target: Histone acetyltransferase KAT6A, winged helix 2, GST fusion (KAT6A, Homo sapiens, UniProt Q92794, residues 85-181)
Notes: 8-mer, flanks averaged, mean of 2 arrays, mostly near background
Construct (chain): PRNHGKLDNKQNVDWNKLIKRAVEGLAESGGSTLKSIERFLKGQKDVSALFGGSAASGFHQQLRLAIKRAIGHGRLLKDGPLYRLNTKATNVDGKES
| Sequence | E-score |
| --- | --- |
| GATTGATA | 0.0916 |
| ACACACTC | 0.0692 |
| AACTGCGA | 0.108 |
| CCGGGACG | 0.0554 |
| AAGAGTCG | -0.0329 |
| AATCTGCA | -0.0507 |
| CCTTAGGC | -0.207 |
| AGTCGGTC | -0.246 |
| TGTGAAAA | 0.0467 |
| GAGGATTA | -0.0194 |
| GCGTTTAA | -0.139 |
| AACTAAAG | 0.0475 |
| ACACCTCG | -0.177 |
| CTGAGCGC | 0.191 |
| ATAGGTGG | -0.157 |
| CCTTGCGC | -0.118 |
| CGTTCACC | -0.072 |
| TGGTCCAA | -0.128 |
| TATTGGCA | 0.0267 |
| CAGGTTAA | -0.131 |
| GACTTTGA | -0.0411 |

Sample 4 — technique: protein-binding microarray; form: double-stranded DNA, one strand shown; medium: in vitro; tested at: 2200 nM top; notes: 60-bp whole probe; together with: salmon DNA 0.4 mg/ml; reference: random background probes; reading: higher = stronger binding; shared flanks, not repeated: GCCTAGCAC … GTCTTGATTCGCTTGACGCTGCTG
Target: Interferon regulatory factor 7, full length, phosphomimetic (IRF7, Homo sapiens, UniProt Q92985, residues 1-503, S471D/S472D/S475D/S476D/S477D/S483D/S484D/S487D)
Sequence of UniProt Q92985 (whole entry, unmodified, looked up): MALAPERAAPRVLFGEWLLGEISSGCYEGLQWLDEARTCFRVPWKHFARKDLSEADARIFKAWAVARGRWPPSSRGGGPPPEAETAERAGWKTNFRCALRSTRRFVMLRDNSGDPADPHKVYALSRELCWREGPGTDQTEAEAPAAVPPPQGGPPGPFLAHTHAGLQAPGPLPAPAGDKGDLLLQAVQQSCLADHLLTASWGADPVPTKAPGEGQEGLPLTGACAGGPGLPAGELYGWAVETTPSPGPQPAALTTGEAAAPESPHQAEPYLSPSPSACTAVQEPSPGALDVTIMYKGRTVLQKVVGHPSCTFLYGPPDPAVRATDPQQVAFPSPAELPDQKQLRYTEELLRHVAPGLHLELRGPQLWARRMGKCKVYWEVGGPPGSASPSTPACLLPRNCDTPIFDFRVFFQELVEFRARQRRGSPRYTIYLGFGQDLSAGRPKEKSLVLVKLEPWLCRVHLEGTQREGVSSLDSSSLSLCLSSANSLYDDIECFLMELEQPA
| Sequence | fitted relative affinity |
| --- | --- |
| GACGGAGTGGGGTTTCGGGACGTGCTA | 0.719 z-score |
| TCATTTCCAATTCTCTTACTGTGCTAG | 2.99 z-score |
| GTAGATTTCAGACTGGATTAGTGCTAG | 0.125 z-score |
| GATTCTTTCGATGCTAAACGAGTGCTA | 1.69 z-score |
| TTAGGTTTCCTACGGCTTTAGTGCTAG | 0.759 z-score |
| GTGTATATGACAATGATGTTGTGCTAG | 0.677 z-score |
| GACGATCTCAGTATCGACACGTGCTAG | 0.119 z-score |
| CATTTTCTTTAACTCATTCTGTGCTAG | 2.36 z-score |
| GACTATTCCAGTTTCGAGACGTGCTAG | 4.4 z-score |
| GACGATCTCAGACTGAAGACGTGCTAG | 0.093 z-score |
| GACGATATCAGACTGGAAACGTGCTAG | 0.136 z-score |
| TCATCTCGGAGATCTCGAACTGTGCTA | 0.284 z-score |
| CTTCCTTTACTTTCTTTTTTGTGCTAG | 5.37 z-score |
| CTGTTCTGCAGACTTCTGTCGTGCTAG | 1.88 z-score |
| GACGATTTAAGTATCGAGACGTGCTAG | -0.0989 z-score |
| GACGAAATCGGGTTTCGAGACGTGCTA | 1.98 z-score |
| TTAGGCTTCGGGTTTCGGTTAGTGCTA | 3.6 z-score |
| TACGGTCTCGGTTTCGGGACGTGCTAG | 4.31 z-score |
| TTTGCTTTCATTTATTTACTGTGCTAG | 3.38 z-score |
| GACGGTATCGGCTATCGGGACGTGCTA | -0.434 z-score |
| GACGAACTTAGACTGGAGACGTGCTAG | -0.0746 z-score |
| GACGGTTCCCTCTTCCTGACGTGCTAG | 2.25 z-score |
| ATAGGTATCGGACTGGGTTAGTGCTAG | 0.534 z-score |
| TTAGGTATGGGTATCGGTTAGTGCTAG | 0.256 z-score |
| GTAGGACTGCTTATCCTTTAGTGCTAG | 0.0675 z-score |

For quick reference, copied from above (sample 4):
| Sequence | fitted relative affinity |
| --- | --- |
| CTTCCTTTACTTTCTTTTTTGTGCTAG | 5.37 z-score |
| CTGTTCTGCAGACTTCTGTCGTGCTAG | 1.88 z-score |
| GACGATTTAAGTATCGAGACGTGCTAG | -0.0989 z-score |
| GACGAAATCGGGTTTCGAGACGTGCTA | 1.98 z-score |
| TTAGGCTTCGGGTTTCGGTTAGTGCTA | 3.6 z-score |
| TACGGTCTCGGTTTCGGGACGTGCTAG | 4.31 z-score |
| TTTGCTTTCATTTATTTACTGTGCTAG | 3.38 z-score |
| GACGGTATCGGCTATCGGGACGTGCTA | -0.434 z-score |
| GACGAACTTAGACTGGAGACGTGCTAG | -0.0746 z-score |
| GACGGTTCCCTCTTCCTGACGTGCTAG | 2.25 z-score |
| ATAGGTATCGGACTGGGTTAGTGCTAG | 0.534 z-score |
